Experimental data from different studies.
Each numbered part is a random draw from the data of one study; scales do not carry over between parts.

Study 1
Target: UBE2E2 UBC core domain (UniProt Q96LR5)
Chain of UniProt Q96LR5 (whole entry, looked up): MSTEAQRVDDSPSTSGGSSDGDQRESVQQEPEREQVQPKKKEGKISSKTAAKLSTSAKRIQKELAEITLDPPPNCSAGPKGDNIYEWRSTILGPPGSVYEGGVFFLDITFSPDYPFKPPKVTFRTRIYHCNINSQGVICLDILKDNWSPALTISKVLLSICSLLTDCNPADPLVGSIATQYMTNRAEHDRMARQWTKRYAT
Technique: yeast two-hybrid
Sample: yeast
Setting: mostly zero background
Baseline: not given
Direction: higher = stronger interaction
B1: RNF112 RING domain (UniProt Q9ULX5); chain QPMAPRELPTCSICLERLRDPISLDCGHDFCIRCFSTHRLPGCEPPCCPECRKICKQKRGLR
B2: RNF175 RING domain (UniProt Q8N4F7); chain LPTRSLSDNICAVCGQKIIVELDEEGLIENTYQLSCNHVFHEFCIRGWCIVGKKQTCPYCKEKVDLKRMIS
B3: ANKIB1 RING domain (UniProt Q9P2G1); chain LSPGDLDTSLCDICMCSISVFEDPVDMPCGHDFCRGCWESFLNLKIQEGEAHNIFCPAYDCFQLVPVDIIE
B4: TRIM10 RING domain (UniProt Q9UDY6); chain SVTSLADEVNCPICQGTLREPVTIDCGHNFCRACLTRYCEIPGPDLEESPTCPLCKEPFRPGSFRP
B5: MSL2 RING domain (UniProt Q9HCI7); chain LLPYFRQSLSCCVCGHLLQDPIAPTNSTCQHYVCKTCKGKKMMMKPSCSWCKDYEQFEENKQ
B6: RNF32 RING domain (UniProt Q9H0A6); chain SLLQGDSVQPCPICKEEFELRPQVLLSCSHVFHKACLQAFEKFTNKKTCPLCRKNQYQTRVIH
B7: TRIM38 RING domain (UniProt O00635); chain STKKMMEEATCSICLSLMTNPVSINCGHSYCHLCITDFFKNPSQKQLRQETFCCPQCRAPFHMDSLRP
B8: RNF43 RING domain (UniProt Q68DV7); chain SGSSCSSAPVCAICLEEFSEGQELRVISCLHEFHRNCVDPWLHQHRTCPLCMFNITEGDSFS
B9: RNF149 RING domain (UniProt Q8NC42); chain EKGIDVDAENCAVCIENFKVKDIIRILPCKHIFHRICIDPWLLDHRTCPMCKLDVIKALGYW
| Sequence | lacZ reporter activity |
| --- | --- |
| KRQCSDVDDICSICQAEFQKPILLICQHIFCEECMTLWFNREKTCPLCRTVISDHINKW (RNFT1 RING domain (UniProt Q5M7Z0)) | 0 |
| B1 (RNF112 RING domain) | 0 |
| ISNDSETLEECMVCSDMKRDTLFGPCGHIATCSLCSPRVKKCLICKEQVQSRTKIE (MIB1 RING domain (UniProt Q86YT6)) | 0 |
| B2 (RNF175 RING domain) | 0 |
| MANWVFCNRCFQPPHRTSCFSLTNCGHVYCDACLGKGKKNECLICKAPCRTVLLSK (RNF212 RING domain (UniProt Q495C1)) | 0 |
| SYEDKSNDFVCPICFDMIEEAYMTKCGHSFCYKCIHQSLEDNNRCPKCNYVVDNIDHLY (COP1 RING domain (UniProt Q8NHY2)) | 0 |
| LKQVSIRENCCSLCCDEVADTQLKPCGHSDLCMDCALQLETCPLCRKEIVSRIRQI (RSPRY1 RING domain (UniProt Q96DX4)) | 0 |
| B3 (ANKIB1 RING domain) | 0 |
| B4 (TRIM10 RING domain) | 0 |
| QLQDEEDDSLCRICMDAVIDCVLLECGHMVTCTKCGKRMSECPICRQYVVRAVHVF (RNF34 RING domain (UniProt Q969K3)) | 0 |
| B5 (MSL2 RING domain) | 0 |
| B6 (RNF32 RING domain) | 0 |
| B7 (TRIM38 RING domain) | 0 |
| B8 (RNF43 RING domain) | 0 |
| B9 (RNF149 RING domain) | 0 |

Study 2
Target: Histone acetyltransferase KAT6A, both winged helices, GST fusion (KAT6A, Homo sapiens, UniProt Q92794, residues 1-181)
Technique: protein binding microarray
Form: double-stranded DNA, one strand shown
Sample: in vitro
Concentration: not given
Setting: 8-mer, flanks averaged, mean of 2 arrays, mostly near background
Baseline: not given
Direction: higher = stronger binding
Target sequence (chain): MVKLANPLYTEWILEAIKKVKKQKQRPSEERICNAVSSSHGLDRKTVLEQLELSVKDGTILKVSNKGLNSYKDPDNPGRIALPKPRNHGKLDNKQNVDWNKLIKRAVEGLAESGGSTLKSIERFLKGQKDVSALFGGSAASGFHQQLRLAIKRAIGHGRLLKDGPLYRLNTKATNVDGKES
| Sequence | E-score |
| --- | --- |
| CTTCTTGC | 0.097 |
| GTGTGAAC | 0.0155 |
| TCACATAA | -0.00125 |
| AGAACTGA | -0.0345 |
| ACGCTCTC | 0.156 |
| TGCTCCCA | -0.224 |
| CGCCTTCC | 0.143 |
| AATCCTAG | -0.135 |
| TACTATAA | -0.074 |
| AACACCGC | 0.212 |
| TCGCTCAA | 0.0726 |
| CACTACTC | -0.0582 |
| ACATTGGG | -0.096 |
| ACTTATGG | -0.084 |
| CGCTTTTC | 0.207 |
| CACCGCTG | 0.165 |
| GAAAGTTA | -0.0918 |
| ACGTAAAT | -0.0264 |
| CTCAGGGC | -0.0675 |
| AACTGGTA | -0.123 |
| AATCACCT | -0.12 |
| AAGTCATT | -0.0871 |
| CTTGACTA | -0.133 |
| GCCTTGCA | -0.0539 |

Study 3
Target: RNA binding protein fox-1 homolog 2, RRM domain, GST-SBP tag (RBFOX2, Homo sapiens, UniProt O43251-10, residues 100-194)
Technique: RNA Bind-n-Seq
Form: RNA
Sample: in vitro
Concentration: 365 nM
Setting: natural RNA segment, single round, ends assumed
Baseline: no-protein control
Direction: higher = stronger binding
Constant ends, left off below: GGGAGUUCUACAGUCCGACGAUC … UGGAAUUCUCGGGUGCCAA
Residues (chain): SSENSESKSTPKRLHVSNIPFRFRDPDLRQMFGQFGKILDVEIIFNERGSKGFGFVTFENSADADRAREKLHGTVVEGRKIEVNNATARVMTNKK
| Sequence | RBNS enrichment (R) |
| --- | --- |
| UCCAAUAACCCAGGGGUUUCCUCAUGUGAUGCAAAUACUACGUGUCCAACCAAUCAGUGCUGUCAACGGGCUGCCAUAGCUCCUUCGAUGGCAAAUAGGAUGUGUGCCCA | 0.248 |
| CCUCAGGUCAAGGGGAGGGAGGCAGCCUCAGUGCAGACUUUAUAGGAUUGUCCUCUUGGUGGACCGGAGUCCUGUCCUUCUCUGCCAAAGAGUUUUACCAAGAUGAAAAG | 0.348 |
| GAUGGAAUGCAUCCCACCUUGCCAAAGCACUUACACCAGUUUGACUGUGCUAGCUAAAAGACAAAUUUAAGGGGAGCUCUUCAACAUUAAGGCAGUAUGAUAUCAUGCUU | 0.772 |
| AAGCGUAAAGAGGAUGUGUGGCAUUUUCACUUUUGGCUUGUAAAGUACAGACUUUUUUUUUUUUUUAAACAAAAAAAGCAUUGUAACUUAUGAACCUUUACAUCCAGAUA | 0.366 |
| CAAUAAAAGAGUCUGAAAAUUGGGAGAGAAAACCUACUCUAGGAGCCUCUGGUUACACAUAUUUUAGGCUUUUUUUCCCCCUGAAAUUGUACUUACUGAGGUCCAUGUAU | 0.371 |
| CAGGGGUGGCUGACCCCAUGCUCAGCCUCUAGGGGACGGCAGGCCAUCAGGCUGGGGGCUGUGCUAUGUGGGAUGGAUGUGUGAGGAACCCCGGUUCCACUUAACAACUA | 1.16 |
| UUGUAGGCUGUUCCCUUUGCCUUAAACCUGAAGAUGUCUCCUCAAGCCUGUGGGCAGCAUGCCCAGAUUCCCAGACCUUAAGACACUGUGAGAGUUGUCUCUGUUGGUCC | 1.13 |
| GAUAAUAGACUUGGAGUGCCGCUGAGGCUGAGAUCUGUGGCCAUUUACAUAGCACAUCAUUCCUCCUAUAGGGAUGAACUUUUUUUCCGACACAAAAAGUAGCCACUGCG | 0.397 |
| CAAGGUGAUAUAUAAUCAUAUCCAGUUUAAUCUUCACAAUAUCCAAUGAAGAAGGUCUCAUUAUCUCCAUGAUAAAGAUGGGGAAACUAAGGUCAGAAGGGUUAACUCAA | 0.208 |
| GCCUUGGACUUAGAUCUGGGUUCUAACAGACUGAAUGUGCACCUUGGGUCUCAGACUCAGUUUCCCCGUUCAUACAUACAGGGAGUAUGAAGUCAGGUAGCCUAAGAUCU | 0.417 |
| CAGCCGUCAGGCCCGCUUCGUCGUCAUCUCUAUCUCCCUGCUCCCUGGCCCUGAGGGUUUGGAAUCUGACCGGGUGAAGGCACCACCGGCGAGCUUUUGAAAGCAACAGG | 0.317 |
| UGUCAUCUGAUGCAUUUGGACCAUAUGCUGCCAGACUGCAGAACGGGGGAGCCGGGGCUCAGGGCCCCUGACUGCAUGGUGCAUGAGUGAUCUCAGCCUAGCGAUGCCGC | 2.84 |

Study 4
Target: Max dimerization protein 1, bHLH-zipper, MAX partner unstated (MXD1, Homo sapiens, UniProt Q05195, residues 56-136)
Technique: protein-binding microarray
Form: double-stranded DNA, one strand shown
Sample: in vitro
Concentration: not given
Setting: k-mer, scored over probes, only values ≥0.25
Direction: higher = stronger binding
Target sequence (chain): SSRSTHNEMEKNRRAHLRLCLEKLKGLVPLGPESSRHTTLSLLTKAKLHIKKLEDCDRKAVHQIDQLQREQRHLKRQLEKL
| Sequence | E-score |
| --- | --- |
| GCGGGGAC | 0.29 |
| ACCACATG | 0.466 |
| AATACACG | 0.321 |
| CTCATGTC | 0.282 |
| AATGCATG | 0.378 |
| CACATGAC | 0.431 |
| CGCGGGGC | 0.284 |
| ACGCACGC | 0.353 |
| CGCCCCTA | 0.258 |
| CCGCACGA | 0.273 |
| AGCGTGAC | 0.312 |
| ATCCATGC | 0.293 |
| CATGTTTC | 0.382 |
| CACGCTAG | 0.311 |
| CGGGGAAC | 0.314 |
| CACATGCA | 0.43 |

Some of these lines once more (study 1):
| Sequence | lacZ reporter activity |
| --- | --- |
| B6 (RNF32 RING domain) | 0 |
| B8 (RNF43 RING domain) | 0 |
| B4 (TRIM10 RING domain) | 0 |
| B7 (TRIM38 RING domain) | 0 |
| ISNDSETLEECMVCSDMKRDTLFGPCGHIATCSLCSPRVKKCLICKEQVQSRTKIE (MIB1 RING domain (UniProt Q86YT6)) | 0 |
